Experimental data of several laboratories.
Compare with care: the assays were run in different laboratories. ± gives the spread as reported.
Cell line: HeLa

Compound | observed | method | time | pH | setting | together with | IC50
COc1cc(C=CC(=O)CC(=O)C=Cc2ccc(OC(=O)CCC(=O)OC3OC4OC5(C)CCC6C(C)CCC(C3C)C46OO5)c(OC)c2)ccc1OC(=O)CCC(=O)OC1OC2OC3(C)CCC4C(C)CCC(C1C)C24OO3 (stereo not shown) | cell growth or viability | MTT | – | – | – | – | 2.41 µM
CC(C)C[C@H](NC(=O)[C@H](CCCCN)NC(=O)[C@H](CC(C)C)NC(=O)[C@H](CC(C)C)NC(=O)[C@H](CCCCN)NC(=O)[C@H](CCCCN)NC(=O)[C@H](CC(C)C)NC(=O)[C@H](CC(C)C)NC(=O)[C@H](CCCCN)NC(=O)[C@H](CC(C)C)NC(=O)[C@H](CC(C)C)NC(=O)[C@H](CCCCN)NC(=O)[C@H](CCCCN)NC(=O)[C@H](CC(C)C)NC(=O)[C@@H](N)CSSC[C@H](N)C(=O)N[C@@H](CC(C)C)C(=O)N[C@@H](CCC(=O)O)C(=O)N[C@@H](CCC(=O)O)C(=O)N[C@@H](CC(C)C)C(=O)N[C@@H](CC(C)C)C(=O)N[C@@H](Cc1c[nH]cn1)C(=O)N[C@@H](Cc1c[nH]cn1)C(=O)N[C@@H](CC(C)C)C(=O)N[C@@H](CCC(=O)O)C(=O)N[C@@H](CCC(=O)O)C(=O)N[C@@H](CC(C)C)C(=O)N[C@@H](CC(C)C)C(=O)N[C@@H](Cc1c[nH]cn1)C(=O)N[C@@H](Cc1c[nH]cn1)C(N)=O)C(N)=O | cell growth or viability | MTT | – | pH 7.4 | – | – | > 100 µM
CCCCCCCCCCCCCCCC(=O)NCCCC[C@H](NC(=O)[C@H](CSCC(=O)NCc1cn(CCOc2ccc(C3=C4C(C)=C(I)C(C)=[N+]4[B-](F)(F)n4c(C)c(I)c(C)c43)cc2)nn1)NC(=O)c1ccc(-c2nnc(C)nn2)cc1)C(=O)N[C@@H](CCCNC(=N)N)C(=O)N[C@@H](CCCNC(=N)N)C(=O)N[C@@H](CCCNC(=N)N)C(=O)N[C@@H](CCCNC(=N)N)C(N)=O | phototoxicity | – | 2 h plus 18 h | – | 2.5% FBS | irradiation 525 nm for 160 s | 0.369 ± 0.03 µM
O=C(O)c1ccccc1-c1c2ccc(=O)cc-2oc2cc(O)ccc12 | cell growth or viability | resazurin | 24 h | – | – | – | > 100 µM
CC(=O)[C@@H]1CCCN1C(=O)[C@@H]1CCCN1C(=O)[C@H](Cc1ccccc1)NC(=O)[C@@H](NC(=O)[C@@H](NC(=O)[C@@H](NC(=O)[C@@H]1CCCN1C(=O)[C@H](C)NC(=O)OC(C)(C)C)C(C)C)C(C)C)C(C)C | cell growth or viability | SRB | – | – | – | – | 12 µM
CC(C)C[C@H](NC(=O)[C@H](CC(C)C)NC(=O)[C@H](CCC(=O)O)NC(=O)[C@H](Cc1c[nH]cn1)NC(=O)[C@H](CC(C)C)NC(=O)[C@H](Cc1c[nH]cn1)NC(=O)[C@H](CCC(=O)O)NC(=O)[C@H](CC(C)C)NC(=O)[C@H](CC(C)C)NC(=O)[C@H](CCC(=O)O)NC(=O)[C@H](Cc1c[nH]cn1)NC(=O)[C@@H](N)CC(C)C)C(=O)N[C@@H](CCC(=O)O)C(=O)N[C@@H](Cc1c[nH]cn1)C(N)=O | cell growth or viability | MTT | – | pH 7.4 | – | – | > 100 µM
COC(=O)[C@@H](NC(=O)[C@@H](NC(=O)[C@@H](NC(=O)[C@@H]1CCCN1C(=O)[C@H](C)NC(=O)OC(C)(C)C)C(C)C)C(C)C)C(C)C | cell growth or viability | SRB | – | – | – | – | 4 µM
CC1=CC=c2ccc3c4c2[N]1[Re](=[C]=O)(=[C]=O)(=[C]=O)([C]#[N+]c1c(C)cccc1C)[N]4C(C)=CC=3.O=S(=O)([O-])C(F)(F)F | cell growth or viability | MTT | 48 h | – | – | – | 1.8 µM
CC[C@H](C)[C@@H]1NC(=O)[C@H](Cc2c[nH]c3ccccc23)NC(=O)[C@H](C)NC(=O)[C@H](C(C)C)NC(=O)[C@H](CC(C)C)NC(=O)[C@H](Cc2c[nH]c3ccccc23)NC1=O | cell growth or viability | MTT | 48 h | – | – | – | 52.1 µg/mL
Cc1nn(-c2ccccc2)c(O)c1C(c1ccccc1[N+](=O)[O-])c1c(C)nn(-c2ccccc2)c1O | cell growth or viability | MTT | 48 h | – | – | – | 39.2 µM
CC[C@H](C)[C@H](NC(=O)[C@H](CCCCN)NC(=O)[C@@H](NC(=O)[C@H](CCC(N)=O)NC(=O)[C@@H](N)CCCNC(=N)N)[C@@H](C)CC)C(=O)N[C@@H](Cc1c[nH]c2ccccc12)C(=O)N[C@@H](Cc1ccccc1)C(=O)N[C@@H](CCC(N)=O)C(=O)N[C@@H](CC(N)=O)C(=O)N[C@@H](CCCNC(=N)N)C(=O)N[C@@H](CCCNC(=N)N)C(=O)N[C@@H](CCSC)C(=O)N[C@@H](CCCCN)C(=O)N[C@@H](Cc1c[nH]c2ccccc12)C(=O)N[C@@H](CCCCN)C(=O)N[C@@H](CCCCN)C(N)=O | cytotoxicity | – | – | – | – | – | 29.6 µM
CC(C)C[C@H](NC(=O)[C@H](CCCCN)NC(=O)[C@H](CC(C)C)NC(=O)[C@H](CC(C)C)NC(=O)[C@H](CCCCN)NC(=O)[C@H](CCCCN)NC(=O)[C@H](CC(C)C)NC(=O)[C@H](CC(C)C)NC(=O)[C@H](CCCCN)NC(=O)[C@H](CC(C)C)NC(=O)[C@H](CC(C)C)NC(=O)[C@H](CCCCN)NC(=O)[C@H](CCCCN)NC(=O)[C@H](CC(C)C)NC(=O)[C@@H](N)CSSC[C@H](N)C(=O)N[C@@H](CC(C)C)C(=O)N[C@@H](Cc1c[nH]cn1)C(=O)N[C@@H](CCC(=O)O)C(=O)N[C@@H](CC(C)C)C(=O)N[C@@H](CC(C)C)C(=O)N[C@@H](CCC(=O)O)C(=O)N[C@@H](Cc1c[nH]cn1)C(=O)N[C@@H](CC(C)C)C(=O)N[C@@H](Cc1c[nH]cn1)C(=O)N[C@@H](CCC(=O)O)C(=O)N[C@@H](CC(C)C)C(=O)N[C@@H](CC(C)C)C(=O)N[C@@H](CCC(=O)O)C(=O)N[C@@H](Cc1c[nH]cn1)C(N)=O)C(N)=O | cell growth or viability | MTT | – | pH 6 | – | – | 11.3 µM
C[C@H](N)[C@@H](CCCCCCCCCCCCCCC(=O)CCCCCCC[C@@H](O)[C@@H](C)N)O[C@@H]1O[C@H](CO)[C@H](O)[C@H](O)[C@H]1O | cell growth or viability | – | – | – | – | – | 12.5 µM
CC(C)C[C@H](NC(=O)[C@H](CC(C)C)NC(=O)[C@H](CCC(=O)O)NC(=O)[C@H](CCC(=O)O)NC(=O)[C@H](CC(C)C)NC(=O)[C@H](Cc1c[nH]cn1)NC(=O)[C@H](Cc1c[nH]cn1)NC(=O)[C@H](CC(C)C)NC(=O)[C@H](CC(C)C)NC(=O)[C@H](CCC(=O)O)NC(=O)[C@H](CCC(=O)O)NC(=O)[C@@H](N)CC(C)C)C(=O)N[C@@H](Cc1c[nH]cn1)C(=O)N[C@@H](Cc1c[nH]cn1)C(N)=O | cell growth or viability | MTT | – | pH 6 | – | – | > 100 µM
CC(=O)O[C@H]1C[C@H](O[C@H]2[C@@H](O)C[C@H](O[C@H]3[C@@H](O)C[C@H](O[C@H]4CC[C@@]5(C)[C@H](CC[C@@H]6[C@@H]5CC[C@]5(C)[C@@H](C7=CC(=O)OC7)[C@@H](O)C[C@]65O)C4)O[C@@H]3C)O[C@@H]2C)O[C@H](C)[C@H]1O[C@@H]1O[C@H](CO)[C@@H](O)[C@H](O)[C@H]1O | cell growth or viability | MTT | 48 h | – | – | – | 0.16 µM
NC(=O)CC[C@@H](NC(=O)[C@@H](CCC(N)=O)NC(=O)[C@@H](CC(N)=O)NC(=O)[C@@H](CC(N)=O)NC(=O)CNC(=O)Cc1ccc2ccccc2c1)C(=O)N[C@H](CC(N)=O)C(=O)N[C@H](Cc1ccc(OP(=O)(O)O)cc1)C(=O)O | – | – | – | – | – | – | > 500 µM
C[C@H]1O[C@@H](O[C@H]2CC[C@@]3(C)[C@H](CC[C@@H]4[C@@H]3CC[C@]3(C)[C@@H](C5=CC(=O)OC5)[C@@H](O)C[C@]43O)C2)C[C@H](O)[C@@H]1O | cell growth or viability | MTT | 48 h | – | – | – | 0.16 µM
O=C(Cc1ccc2ccccc2c1)N[C@H](Cc1ccccc1)C(=O)N[C@H](Cc1ccccc1)C(=O)N[C@H](Cc1ccc(O)cc1)C(=O)N[C@H](Cc1ccc(O)cc1)C(=O)O | cell growth or viability | MTT | – | – | – | – | > 500 µg/mL
CC[C@H](C)[C@H](NC(=O)[C@H](C)NC(=O)[C@H](CCCCN)NC(=O)[C@H](CCCCN)NC(=O)[C@@H](N)CCCNC(=N)N)C(=O)N[C@@H](CCCCN)C(=O)N[C@@H](CC(C)C)C(=O)N[C@H](C(=O)N[C@@H](CCCCN)C(=O)N[C@@H](CCCCN)C(=O)N[C@@H](CC(C)C)C(=O)N[C@H](C(=O)N[C@@H](CCCCN)C(=O)N[C@@H](CCCCN)C(=O)N[C@@H](CC(C)C)C(=O)N[C@@H](CCCCN)C(=O)N[C@@H](CCCCN)C(=O)N[C@@H](C)C(=O)N[C@@H](CC(C)C)C(=O)N[C@@H](CCCCN)C(=O)O)C(C)C)C(C)C | cell growth or viability | MTT | – | – | – | – | > 128 µg/mL
CCc1ccc(C(c2c(C)nn(-c3ccccc3)c2O)c2c(C)nn(-c3ccccc3)c2O)cc1 | cell growth or viability | MTT | 48 h | – | – | – | 28.8 µM
C[C@H]1[C@H](OC(=O)CCC(=O)OCCc2ccc(OC(=O)CCC(=O)O[C@@H]3O[C@@H]4O[C@@]5(C)CC[C@H]6[C@H](C)CC[C@@H]([C@H]3C)[C@@]46OO5)cc2)O[C@@H]2O[C@@]3(C)CC[C@H]4[C@H](C)CC[C@@H]1[C@@]24OO3 | cell growth or viability | MTT | – | – | – | – | 2.16 µM
COc1cc(/C=C(\C#N)C(=O)Nc2nnc(C(F)(F)F)s2)ccc1OC(=O)N1CCN(C(=O)CCCC(=O)NCCCC[C@@H]2NC(=O)[C@@H](Cc3ccc(O)cc3)NC(=O)[C@H](CC(=O)O)NC(=O)CNC(=O)[C@H](CCCNC(=N)N)NC2=O)CC1 | cell growth or viability | MTT | 48 h | – | – | – | > 100 µM
N=C(N)NCCC[C@H](NC(=O)[C@H](CCCNC(=N)N)NC(=O)[C@H](CCCNC(=N)N)NC(=O)[C@H](CCCNC(=N)N)NC(=O)[C@H](CCCNC(=N)N)NC(=O)[C@H](CCCNC(=N)N)NC(=O)[C@H](CCCNC(=N)N)NC(=O)[C@H](CCCNC(=N)N)NC(=O)[C@@H](N)CSCC(=O)Nc1ccc(-c2c3nc(c(-c4ccccc4)c4ccc([nH]4)c(-c4ccccc4)c4nc(c(-c5ccccc5)c5ccc2[nH]5)C=C4)C=C3)cc1)C(N)=O | phototoxicity | – | 2 h plus 18 h | – | 2.5% FBS | irradiation 525 nm for 160 s | 3.89 ± 0.453 µM
COc1ccc(C(c2c(C)nn(-c3ccccc3)c2O)c2c(C)nn(-c3ccccc3)c2O)cc1OC | cell growth or viability | MTT | 48 h | – | – | – | 18.6 µM
O=C(Cc1ccc2ccccc2c1)N[C@H](Cc1ccccc1)C(=O)N[C@H](Cc1ccccc1)C(=O)N[C@H](Cc1ccc(O)cc1)C(=O)N[C@H](Cc1ccc(OP(=O)(O)O)cc1)C(=O)O | cell growth or viability | MTT | – | – | – | – | 177 µg/mL
CCCCCCCCCc1ccc(C(=O)N[C@@H](CO)C(=O)N[C@H](C(=O)N[C@@H](C)C(=O)N[C@H](C(N)=O)[C@@H](C)CC)[C@@H](C)OP(=O)(O)O)cc1 | cell growth or viability | MTT | 72 h | – | – | – | 38.2 µM
COc1ccc(C(c2c(C)nn(-c3ccccc3)c2O)c2c(C)nn(-c3ccccc3)c2O)cc1 | cell growth or viability | MTT | 48 h | – | – | – | 19.2 µM
COCCOCCOCCOCCOCCOCCOCCOCCC(=O)N1CCC[C@H]1C(=O)N[C@@H](CC(C)C)C(=O)N[C@@H](Cc1cncn1CCCCCCCCc1ccccc1)C(=O)N[C@@H](CO)C(=O)N[C@H](C(N)=O)[C@@H](C)CP(=O)(O)O | cell proliferation | – | – | – | synchronised by thymidine block | – | 380 µM

Some of these lines once more:
Compound | observed | method | time | pH | setting | together with | IC50
N=C(N)NCCC[C@H](NC(=O)[C@H](CCCNC(=N)N)NC(=O)[C@H](CCCNC(=N)N)NC(=O)[C@H](CCCNC(=N)N)NC(=O)[C@H](CCCNC(=N)N)NC(=O)[C@H](CCCNC(=N)N)NC(=O)[C@H](CCCNC(=N)N)NC(=O)[C@H](CCCNC(=N)N)NC(=O)[C@@H](N)CSCC(=O)Nc1ccc(-c2c3nc(c(-c4ccccc4)c4ccc([nH]4)c(-c4ccccc4)c4nc(c(-c5ccccc5)c5ccc2[nH]5)C=C4)C=C3)cc1)C(N)=O | phototoxicity | – | 2 h plus 18 h | – | 2.5% FBS | irradiation 525 nm for 160 s | 3.89 ± 0.453 µM
COc1ccc(C(c2c(C)nn(-c3ccccc3)c2O)c2c(C)nn(-c3ccccc3)c2O)cc1OC | cell growth or viability | MTT | 48 h | – | – | – | 18.6 µM
O=C(Cc1ccc2ccccc2c1)N[C@H](Cc1ccccc1)C(=O)N[C@H](Cc1ccccc1)C(=O)N[C@H](Cc1ccc(O)cc1)C(=O)N[C@H](Cc1ccc(OP(=O)(O)O)cc1)C(=O)O | cell growth or viability | MTT | – | – | – | – | 177 µg/mL
CCCCCCCCCc1ccc(C(=O)N[C@@H](CO)C(=O)N[C@H](C(=O)N[C@@H](C)C(=O)N[C@H](C(N)=O)[C@@H](C)CC)[C@@H](C)OP(=O)(O)O)cc1 | cell growth or viability | MTT | 72 h | – | – | – | 38.2 µM
